Experimental data collected from several papers.
± marks the error that the study gave.

SMILES | organism | test | test system | conditions | quantity | value
COc1ccccc1N1CCN(CCCCNC(=O)c2ccc3ccccc3c2)CC1 | Plasmodium falciparum |  | Dd2 |  | IC50 | 10 µM
CCN(CC)CCO[C@H]1CC[C@@]2(C)C(=CC[C@@H]3[C@@H]2CC[C@]2(C)C(=O)CC[C@@H]32)C1 | human rotavirus | viral replication, focus reduction | MA104, DS-1 | pretreated 20 h before infection | EC50 | 5.84 µM
O[C@@H]1[C@H](O)[C@@H]2C[C@@H]2[C@H]1n1cnc2c(NC(C3CC3)C3CC3)nc(Cl)nc21 | respiratory syncytial virus | viral replication, visual cytopathic effect | MA104, A2 |  | EC50 | 32 µM
O=C(Nc1cccc(CN2CCN(C(=O)c3ccccc3)CC2)c1)c1cccs1 | Plasmodium falciparum | parasite growth, SYBR Green | 3D7 wild type | 72 h | EC50 | 0.302 ± 0.064 µM
NC(=O)c1ncn([C@@H]2O[C@H](CO)[C@@H](O)[C@H]2O)n1 | dengue virus 2 | viral replication | BHK-21 | 96 h | EC50 | 16 µM
Cc1nc(Nc2ccc(C)c(Cl)c2)c2c(C)noc2n1 | Plasmodium falciparum | parasite growth | Dd2 |  | EC50 | 0.375 ± 0.081 µM
CCCC1O[C@@H]2C[C@H]3[C@@H]4CCC5=CC(=O)C=C[C@]5(C)[C@H]4[C@@H](O)C[C@]3(C)[C@]2(C(=O)CO)O1 (stereo partly shown) | Plasmodium falciparum |  | D10 |  | IC50 | 10 µM
Cc1sc(CNCCCNc2cc(=O)c3ccccc3[nH]2)c(I)c1C | Plasmodium falciparum | parasite growth |  |  | EC50 | 0.546 ± 0.22 µM
Fc1ccc(-c2ccnc3[nH]cc(C#Cc4cccnc4)c23)cc1 | dengue virus 2 | viral replication | Huh-7 |  | EC50 | 6.17 ± 0.56 µM
Nc1nc(O)c2ncn(COC(CO)CO)c2n1 | feline infectious peritonitis virus | viral cytopathic effect, MTS | CRFK |  | EC50 | > 100 µM
C(#Cc1c[nH]c2nccc(-c3cccnc3)c12)c1cccnc1 | dengue virus 2 | viral replication | Huh-7 |  | EC50 | 3.2 ± 0.47 µM
COc1ccccc1N1CCN(Cc2c(NC(C)=O)sc(C)c2C)CC1 | Plasmodium falciparum | parasite growth, SYBR Green | 3D7 DHODH E182D | 72 h | EC50 | 0.556 ± 0.081 µM
NC(=O)c1ncn([C@@H]2O[C@H](CO)[C@@H](O)[C@H]2O)n1 | respiratory syncytial virus | viral replication | HeLa |  | EC50 | 6 µM
CC(=O)c1cc(O)c2ccccc2c1O | Dengue virus 2 | viral replication | replicon |  | EC50 | 5 µM
COc1ccc(-c2ccnc3[nH]nc(C#Cc4cccnc4)c23)cc1OC | dengue virus 2 | viral replication | Huh-7 |  | EC50 | 2.62 ± 0.46 µM
C[C@@]1(O)[C@H](O)[C@@H](CO)O[C@H]1n1ccc2c(N)ncnc21 | dengue virus 2 | viral replication | Huh-7.5.1, Renilla luciferase reporter | 48 h | EC50 | 1.1 µM
C[C@H]1CN(c2n[nH]c3nc(N[C@H]4CC[C@H](NS(=O)(=O)CCC(F)(F)F)CC4)ncc23)CCO1 | Leishmania donovani |  | promastigotes, LdBOB CRK3 overexpressing |  | EC50 | 0.0094 ± 4e-05 µM
COc1ccc(NC(=O)N2CCCCN3[C@H](CN(C)C)[C@H](c4ccc(C#Cc5ccccc5)cc4)[C@@H]3C2)cc1 | Cryptosporidium parvum | luciferase | HCT-8, parent strain | 48 h | EC50 | 0.029 µM
C(#Cc1c[nH]c2nccc(-c3ccsc3)c12)c1cccnc1 | dengue virus 2 | viral replication | Huh-7 |  | EC50 | 7.56 ± 0.74 µM
CCCCOc1ccccc1C(=O)NCc1csc(-c2ccccc2)n1 | Plasmodium falciparum | parasite growth, SYBR Green | 3D7 wild type | 72 h | EC50 | 0.436 ± 0.1 µM
COc1cc(-c2ccnc3[nH]cc(C#Cc4cccnc4)c23)ccc1F | dengue virus 2 | viral replication | Huh-7 |  | EC50 | 2.52 ± 0.47 µM
CC(C)C(NC(=O)Cc1cccc2ccccc12)C(=O)Nc1cccc(C#N)c1 (stereo not shown) | Plasmodium falciparum | parasite growth, SYBR Green | 3D7 DHODH E182D | 72 h | EC50 | 10.5 ± 2.8 µM
